Measurements of several laboratories.
Protocols differ between the studies behind these lines. ± gives the spread as reported.

| SMILES | assay | test system | setting | scale | endpoint | result |
| --- | --- | --- | --- | --- | --- | --- |
| CC(=O)[O-].O.O.O.O.[Mn+2].[O-]c1ccc(Br)cc1C=NCCN1CCOCC1 | superoxide scavenging | – | 80 µM | – | inhibition | 11.5% |
| CC(CCC(=O)NCc1ccc(C(=O)NO)cc1)C1CCC2C3C(O)CC4CC(O)CCC4(C)C3CCC12C (centres unmarked) | refers to: Tauro-conj | PCK rat (Pkhd1 mutant), bile | oral gavage, dose not given, 5 months | baseline: total bile acids | relative abundance | 80.6% |
| COc1cc(O)ccc1CCC(c1ccc(O)cc1)c1cc2c(c(C)c1O)OC(c1ccc(O)cc1)CC2 (mixture of isomers) | – | human blood | 3 µM, added: A23187 | – | 20-OH-LTB4 level | 266 ± 79 pg/mL |
| N=C(N)NCCC[C@@H]1NC(=O)[C@H](CCCNC(=N)N)NC(=O)[C@@H](C(c2ccccc2)c2ccccc2)NC(=O)[C@H](Cc2c[nH]c3ccccc23)NC(=O)[C@@H](C(c2ccccc2)c2ccccc2)NC(=O)[C@@H](CCCNC(=N)N)NC(=O)[C@@H](CCCNC(=N)N)NC1=O | – | bacterial membrane liposomes | 50 µg/mL, 20 min | – | calcein leakage | 56 to 64% |
| COc1ccc(C(=O)CCc2cc(C(CCc3ccc(O)cc3OC)c3ccc(O)cc3)c(O)cc2OC)cc1 (racemic) | – | human blood | 10 µM, added: A23187 | – | EPA level | 72500 ± 14000 pg/mL |
| COc1ccc2cc3[n+](cc2c1OCCCOC(=O)c1cscn1)CCc1cc2c(cc1-3)OCO2 | – | C57BL/6 mice, high-fat diet | oral gavage, 40 mg/kg daily, 14 weeks | baseline: HFD control | plasma LDL-C reduction | 62.4% |
| COC1CN([C@H]2CC[C@H]([C@@]3(C)Oc4c(Cl)cc(C(=O)NCc5c(SC)cc(C)[nH]c5=O)c(C)c4O3)CC2)C1 | RNA-seq, refers to: CREB3L1 mouse homolog | mouse, HT-1376 xenograft, whole blood | dose not given | baseline: vehicle | log2 fold change | 0.954 |
| CN1CCC[C@]1(C)/C=C/S(=O)(=O)NC(=O)Nc1c2c(cc3c1CCC3)CCC2 | IL-1β release | human, whole blood ex vivo | oral, 50 mg twice daily, day 14, 336 h, multiple ascending dose, added: LPS and ATP | – | inhibition | 98.5% |

Some of these lines once more:
| SMILES | assay | test system | setting | scale | endpoint | result |
| --- | --- | --- | --- | --- | --- | --- |
| COc1ccc(C(=O)CCc2cc(C(CCc3ccc(O)cc3OC)c3ccc(O)cc3)c(O)cc2OC)cc1 (racemic) | – | human blood | 10 µM, added: A23187 | – | EPA level | 72500 ± 14000 pg/mL |
